Assay results of several laboratories.
Compare with care: the assays were run in different laboratories. ± marks the error that the study gave.

Compound | assay | system | setting | how to read | endpoint | value
C=CC(=O)Nc1cc(Nc2nccc(-c3cn(C)c4ccccc34)n2)c(OC)cc1N(C)CCN(C)C | storage stability | human dried blood spot | 2 h, on ice, LQC level | – | recovery | 98.1%
CNc1ccc(-c2nc3ccc(O)cc3s2)cc1 [carbon-11 labelled] | ex vivo biodistribution | B6SJL mouse, normal, liver | intravenous, 30 min | – | SUV | 4.08 ± 2.09
C=CC(=O)NC1CCN(c2ncc3ncnc(Nc4ccc(Oc5ccc6c(c5)ncn6C)c(C)c4)c3n2)CC1 | – | healthy male volunteers, plasma | intravenous, 10 µg, [14C] microtracer | – | dose-normalised AUC(0-t) | 285 nmol·h/L/mg
Cc1cc(-c2nccc3c2ccn3CC(=O)Nc2ccc(-c3cnccn3)cn2)ccn1 | measured: AUCtau | human, plasma | oral, 5 mg once daily | relative to: day 16 over day 1 | accumulation ratio | 1.59
NS(=O)(=O)c1ccc(NN=C2C(=O)Nc3ccc(C(=O)O)cc32)cc1 | – | octanol/buffer | pH 11 | – | logP | -1.5
CCN1CCN(Cc2ccc(Nc3ncc(F)c(-c4cc(F)c5nc6n(c5c4)[C@H](C)CCC6)n3)nc2)CC1 | – | human, plasma | 400 mg single dose, mean | – | Cmax | 196 ng/mL
CCCC(=O)Nc1cc(C2CC2)[nH]n1 | – | octanol/buffer | pH 11 | – | logP | 1.68
C[C@@H](Oc1cc(-c2cnn(C3CCNCC3)c2)cnc1N)c1c(Cl)ccc(F)c1Cl | – | patients, plasma | oral, dose not given, cycle 2 day 1, added: avelumab | – | dose-normalised Cmax, geometric mean | 1 ng/mL/mg
CC(C)(C(=O)N1CCOc2c(C#N)cncc2C1)C(F)F | measured: general and administration site disorders | human, both sexes | oral, 20 mg twice daily, 14 days, multiple ascending dose | – | subjects with TEAE | 12.5%
CCc1cc(C(=O)NC)c2nccc(N3CCc4c(cc(Cn5ccnc5)cc4-c4cn(C)nc4C(F)(F)F)C3=O)c2c1 | – | Sprague Dawley rats | oral, 100 mg/kg twice daily, 7 days | relative to: vehicle | blood MPV change | -2.79%
Cn1c(=O)[nH]c2ncn(C)c2c1=O | – | human, cerebrospinal fluid | dose not given, mean | – | CSF concentration | not detected
O=C(Nc1ccc(OC(F)(F)Cl)cc1)c1cnc(N2CC[C@@H](O)C2)c(-c2ccn[nH]2)c1 | per laboratory record, measured: hemoglobin decrease | human patients | oral, dose not given | – | grade ≥3 event rate | 0.1%
Cc1cc(NC2CCN(C(=O)OC3CCN(C(=O)/C=C/CN(C)C)C3)CC2)n2ncc(C(C)C)c2n1 (stereo not drawn) | Phase I dose escalation CTCAE v4.0, measured: peripheral oedema | patients with advanced solid tumours | dose not given, QD dosing grade 3 or higher | – | patients with adverse event | 0%
C=CC(=O)N1CCC(c2ccc(C(N)=O)c(-c3ccc(Oc4ccccc4)cc3)n2)CC1 | serious adverse event Dizziness | patients with relapsed/refractory MCL | oral | – | incidence | 0.9%
O=C(Nc1cnccc1Cl)N1CCN(Cc2ccc3c(c2)OC(F)(F)O3)CC1 | multiple ascending dose | young men | 10 mg, treatment-emergent adverse events | – | injection site pain incidence | 0%
CCn1c(=O)c(-c2cc(NC(=O)Nc3ccccc3)c(F)cc2Br)cc2cnc(NC)cc21 | measured: gastrointestinal disorders | human, moderate hepatic impairment | oral, 50 mg single dose | – | participants with drug-related TEAE | 0%
CN(CCC(=O)O)C(=O)c1ccc2c(c1)CC[C@@H]1[C@@H]2CC[C@]2(C)C(c3cncc(F)c3)=CC[C@@H]12 | – | premenopausal women, endometriosis pain, serum | 60 mg twice daily, visit 5, median | relative to: baseline | total bilirubin change | 0.45 mg/dL
NC1(C(=O)N[C@@H](CCO)c2ccc(Cl)cc2)CCN(c2nc[nH]c3nccc2-3)CC1 | – | metastatic CRPC patients | dose not given, grade 3 to 4, treatment-related, all doses, added: enzalutamide 160 mg daily | – | incidence of Blindness | 0%
O=C(Nc1nc2cccc(-c3ccc(CN4CCS(=O)(=O)CC4)cc3)n2n1)C1CC1 | – | rheumatoid arthritis patients | oral, 100 mg twice daily, 4 weeks, TEAE regardless of relatedness | – | patients with Paresthesia | 0%
COc1cc(Nc2ncc3c(n2)-c2ccc(Cl)cc2C(c2c(F)cccc2OC)=NC3)ccc1C(=O)O | measured: Hyperkalemia, all grades | cancer patients, phase 1/2 | oral, dose not given, added: pembrolizumab | – | patients with adverse event | 13%
CNC(=O)c1ccc(-c2cnc3ncc(Cc4ccc5ncccc5c4)n3n2)cc1F | – | cancer patients | oral, dose not given, all grades dose escalation | – | ALT increased incidence | 13%
CCc1nc(C(N)=O)c(Nc2ccc(N3CCC(N4CCN(C)CC4)CC3)c(OC)c2)nc1NC1CCOCC1 | – | mouse plasma | 425 ng/mL, 22 days, -80 °C | – | long-term stability accuracy | 98.7%
CCN1/C(=C/C(C)=O)Sc2ccc(F)cc21 | – | mouse, male, blood and brain | intraperitoneal, dose not given, up to 60 min | relative to: peak | concentration relative to peak | < 10%

Compound | assay | system | setting | how to read | endpoint | value
Cc1ccc2c(c1)sc(-c1ccc(N(C)C)cc1)[n+]2C | – | PBS | free dye | – | emission maximum wavelength | 488 nm
O=[N+]([O-])c1cc2c3ccccc3ccc2c2ccccc12 | – | female Sprague-Dawley rats, mammary gland | intramammary injection, 12.3 µmol/rat total, 32 weeks, at necropsy | – | mammary tumour incidence | 92%
COc1cccc(OC)c1NS(=O)(=O)c1ccc(N/C=C2\C(=O)Nc3ccc4ncsc4c32)cc1 | – | octanol/buffer, 40 mM buffer | pH 11 | – | logP | 2.69
O=C(O)CCC(=O)O.[2H]C([2H])([2H])Oc1cc(C)c2[nH]ccc2c1CN1CC[C@@H](C2CC2)C[C@H]1c1ccc(C(=O)O)cc1 | LC-MS/MS, mean | human, plasma | 50 mg, single dose, fasting | – | Vd/F | 47 L
Cc1ccc([C@@H]2O[C@H](CO)[C@@H](O)[C@H](O)[C@H]2O)cc1Cc1ccc(-c2ccc(F)cc2)s1 | – | Japanese type 2 diabetes patients | 200 mg, day 4, 24 h urine collection | relative to: baseline | urinary potassium excretion change | 0.54 mEq
CC(=O)c1cccc(NC(=O)CSc2nnc(-c3cc4ccccc4cc3O)n2C)c1 | – | octanol/buffer | pH 11, known kinase inactives set | – | logP | 1.48
Cn1cc(-c2cn3nccc3c(-c3cnn([C@]4(CC#N)C[C@@H](C#N)C4)c3)n2)cn1 | – | healthy humans fasted, plasma | oral, 1600 mg single dose, geometric mean | – | dose-normalised AUC(0-t) | 6.2 ng·h/mL/mg
Nc1cccc2ccc(/C=C/C(=O)c3ccccc3)cc12 | – | toluene | 20 °C | – | emission maximum | 552 nm
CN(CCCN1CCN(C(=O)CN2CCN(CC(=O)[O-])CCN(CC(=O)[O-])CCN(CC(=O)[O-])CC2)CC1)c1ccc2nccc(C(=O)NCC(=O)N3CC(F)(F)C[C@H]3C#N)c2c1.[68Ga+3] | – | mice, HT-1080.hFAP and HT-1080 wild-type xenografts, pancreas | iv, 500 pmol, 4 h post injection | – | uptake | 0.1 %IA/g
FC(F)(F)c1ccc(CNc2ccc(Cc3c[nH]c4ncc(Cl)cc34)cn2)cn1 | measured: face oedema | human, advanced solid tumours, all patients | oral, 1000 mg/day, any grade | – | treatment-related adverse events | 9%
CNC(=O)c1ccc(-c2cnc3ncc(Cc4ccc5ncccc5c4)n3n2)cc1F | – | human, plasma | oral, 300 mg twice daily, capsule, cycle 1 day 1 | – | AUC(0-inf), geometric mean | 8040 ng·h/mL
CN1CCCC1CCNS(=O)(=O)c1ccc2c(c1)CN(CC1CCCCC1)CC2 (stereo not drawn) | – | THY-Tau22 mouse, plasma | oral in diet, 0.0002% in diet, 6 months, sampled at 8 p.m. | – | concentration | 0.333 ng/mL
Cc1nc(C(=O)N2CCC[C@H]2C(=O)N[C@@H](CCC2CCCCC2)C(=O)N[C@@H](CC(C)C)C(=O)NC(C)(C)C(=O)N[C@@H](CC(C)C)C(=O)N[C@@H](CC(C)C)C(=O)NC(C)(C)C(=O)NC(C)(C)C(=O)NCCC(=O)NC2(CN(C)C)CCC2)co1 | circular dichroism | phosphate buffer | pH 7.4, 20 °C | – | alpha-helix content | 26.2%
O=C1Nc2ccc3ncsc3c2/C1=C/Nc1ccc2c(c1)CS(=O)(=O)C2 | – | octanol/buffer | pH 11 | – | logP | 2.52
Cc1cc(C)c(CNC(=O)c2cc(Cl)c3c(c2C)O[C@@](C)([C@H]2CC[C@H](N(C)C)CC2)O3)c(=O)[nH]1 | CTCAE v4.0, measured: blood bilirubin increased | human relapsed/refractory NHL | oral, 200 mg once daily, onset after cycle 1 day 1, overall treatment period | – | patients with TEAE | 16.7%
COc1cc(CCC(=O)O)ccc1O[C@@H]1O[C@H](C(=O)O)[C@@H](O)[C@H](O)[C@H]1O | – | human, cerebrospinal fluid | concentration not given, mean | – | CSF concentration | 1.7 nM
COC(=O)c1ccccc1C1=c2cc3c4c(c2Oc2c1ccc1cccc(O)c21)CCC[N+]=4CCC3.[Cl-] | – | 12.5 mM aqueous NaOH | pH 12.1, 10% DMSO | – | emission maximum | 770 nm
CC(C)c1nc(N(C)S(C)(=O)=O)nc(-c2ccc(F)cc2)c1/C=C/[C@@H](O)C[C@@H](O)CC(=O)O | – | rat, Wistar albino, plasma | oral, 20 mg/kg | – | elimination rate constant | 1.94e-05 s⁻¹
CCOc1c([C@H](C)n2nc(C)c3c(N)ncnc32)cc(Cl)c(F)c1[C@@H]1CNC(=O)C1 | – | patients, monotherapy | oral, 45 mg once daily, cycle 1 day 15 | – | half-life geometric mean | 11.1 h
CCCn1cc(C)c2c(=O)[nH]c(-c3cc(S(=O)(=O)N4CCN(CC)CC4)ccc3OCC)nc21 | – | human | concentration not given, treatment-emergent adverse event | – | priapism | 61.1%
COc1ccc2c(=O)n(C)c(-c3ccccc3)nc2c1 | – | Sprague-Dawley rat, male, lung | oral, 30 mg/kg, 2 h | relative to: lung over plasma | tissue/plasma ratio | 0.98
CCn1cc(C2CC2)c2c(Cc3ccc(C(F)(F)F)nc3)n(C)nc2c1=O | – | rat Sprague-Dawley male, blood | intravenous, 1 mg/kg | – | CLint,u | 68.2 mL/min/kg

For quick reference, copied from above:
Compound | assay | system | setting | how to read | endpoint | value
Cc1ccc([C@@H]2O[C@H](CO)[C@@H](O)[C@H](O)[C@H]2O)cc1Cc1ccc(-c2ccc(F)cc2)s1 | – | Japanese type 2 diabetes patients | 200 mg, day 4, 24 h urine collection | relative to: baseline | urinary potassium excretion change | 0.54 mEq
CC(=O)c1cccc(NC(=O)CSc2nnc(-c3cc4ccccc4cc3O)n2C)c1 | – | octanol/buffer | pH 11, known kinase inactives set | – | logP | 1.48
Cn1cc(-c2cn3nccc3c(-c3cnn([C@]4(CC#N)C[C@@H](C#N)C4)c3)n2)cn1 | – | healthy humans fasted, plasma | oral, 1600 mg single dose, geometric mean | – | dose-normalised AUC(0-t) | 6.2 ng·h/mL/mg
Nc1cccc2ccc(/C=C/C(=O)c3ccccc3)cc12 | – | toluene | 20 °C | – | emission maximum | 552 nm
CN(CCCN1CCN(C(=O)CN2CCN(CC(=O)[O-])CCN(CC(=O)[O-])CCN(CC(=O)[O-])CC2)CC1)c1ccc2nccc(C(=O)NCC(=O)N3CC(F)(F)C[C@H]3C#N)c2c1.[68Ga+3] | – | mice, HT-1080.hFAP and HT-1080 wild-type xenografts, pancreas | iv, 500 pmol, 4 h post injection | – | uptake | 0.1 %IA/g
FC(F)(F)c1ccc(CNc2ccc(Cc3c[nH]c4ncc(Cl)cc34)cn2)cn1 | measured: face oedema | human, advanced solid tumours, all patients | oral, 1000 mg/day, any grade | – | treatment-related adverse events | 9%
CNC(=O)c1ccc(-c2cnc3ncc(Cc4ccc5ncccc5c4)n3n2)cc1F | – | human, plasma | oral, 300 mg twice daily, capsule, cycle 1 day 1 | – | AUC(0-inf), geometric mean | 8040 ng·h/mL
